# Assay results from different studies.
# Lines come from different studies, so protocols differ. Values joined by “and” are separate records of one study, mostly repeats; a detail may differ. ± marks the error that the study gave.
# nanI: Sialidase (nanI, Clostridium perfringens, UniProt A0A0H2YQR1)
# Polyprotein P1234 nsP2 protease domain: Polyprotein P1234, nsP2 protease domain (Chikungunya virus, UniProt Q5XXP4)
# UniProt Q5XXP4, sequence (whole entry, looked up): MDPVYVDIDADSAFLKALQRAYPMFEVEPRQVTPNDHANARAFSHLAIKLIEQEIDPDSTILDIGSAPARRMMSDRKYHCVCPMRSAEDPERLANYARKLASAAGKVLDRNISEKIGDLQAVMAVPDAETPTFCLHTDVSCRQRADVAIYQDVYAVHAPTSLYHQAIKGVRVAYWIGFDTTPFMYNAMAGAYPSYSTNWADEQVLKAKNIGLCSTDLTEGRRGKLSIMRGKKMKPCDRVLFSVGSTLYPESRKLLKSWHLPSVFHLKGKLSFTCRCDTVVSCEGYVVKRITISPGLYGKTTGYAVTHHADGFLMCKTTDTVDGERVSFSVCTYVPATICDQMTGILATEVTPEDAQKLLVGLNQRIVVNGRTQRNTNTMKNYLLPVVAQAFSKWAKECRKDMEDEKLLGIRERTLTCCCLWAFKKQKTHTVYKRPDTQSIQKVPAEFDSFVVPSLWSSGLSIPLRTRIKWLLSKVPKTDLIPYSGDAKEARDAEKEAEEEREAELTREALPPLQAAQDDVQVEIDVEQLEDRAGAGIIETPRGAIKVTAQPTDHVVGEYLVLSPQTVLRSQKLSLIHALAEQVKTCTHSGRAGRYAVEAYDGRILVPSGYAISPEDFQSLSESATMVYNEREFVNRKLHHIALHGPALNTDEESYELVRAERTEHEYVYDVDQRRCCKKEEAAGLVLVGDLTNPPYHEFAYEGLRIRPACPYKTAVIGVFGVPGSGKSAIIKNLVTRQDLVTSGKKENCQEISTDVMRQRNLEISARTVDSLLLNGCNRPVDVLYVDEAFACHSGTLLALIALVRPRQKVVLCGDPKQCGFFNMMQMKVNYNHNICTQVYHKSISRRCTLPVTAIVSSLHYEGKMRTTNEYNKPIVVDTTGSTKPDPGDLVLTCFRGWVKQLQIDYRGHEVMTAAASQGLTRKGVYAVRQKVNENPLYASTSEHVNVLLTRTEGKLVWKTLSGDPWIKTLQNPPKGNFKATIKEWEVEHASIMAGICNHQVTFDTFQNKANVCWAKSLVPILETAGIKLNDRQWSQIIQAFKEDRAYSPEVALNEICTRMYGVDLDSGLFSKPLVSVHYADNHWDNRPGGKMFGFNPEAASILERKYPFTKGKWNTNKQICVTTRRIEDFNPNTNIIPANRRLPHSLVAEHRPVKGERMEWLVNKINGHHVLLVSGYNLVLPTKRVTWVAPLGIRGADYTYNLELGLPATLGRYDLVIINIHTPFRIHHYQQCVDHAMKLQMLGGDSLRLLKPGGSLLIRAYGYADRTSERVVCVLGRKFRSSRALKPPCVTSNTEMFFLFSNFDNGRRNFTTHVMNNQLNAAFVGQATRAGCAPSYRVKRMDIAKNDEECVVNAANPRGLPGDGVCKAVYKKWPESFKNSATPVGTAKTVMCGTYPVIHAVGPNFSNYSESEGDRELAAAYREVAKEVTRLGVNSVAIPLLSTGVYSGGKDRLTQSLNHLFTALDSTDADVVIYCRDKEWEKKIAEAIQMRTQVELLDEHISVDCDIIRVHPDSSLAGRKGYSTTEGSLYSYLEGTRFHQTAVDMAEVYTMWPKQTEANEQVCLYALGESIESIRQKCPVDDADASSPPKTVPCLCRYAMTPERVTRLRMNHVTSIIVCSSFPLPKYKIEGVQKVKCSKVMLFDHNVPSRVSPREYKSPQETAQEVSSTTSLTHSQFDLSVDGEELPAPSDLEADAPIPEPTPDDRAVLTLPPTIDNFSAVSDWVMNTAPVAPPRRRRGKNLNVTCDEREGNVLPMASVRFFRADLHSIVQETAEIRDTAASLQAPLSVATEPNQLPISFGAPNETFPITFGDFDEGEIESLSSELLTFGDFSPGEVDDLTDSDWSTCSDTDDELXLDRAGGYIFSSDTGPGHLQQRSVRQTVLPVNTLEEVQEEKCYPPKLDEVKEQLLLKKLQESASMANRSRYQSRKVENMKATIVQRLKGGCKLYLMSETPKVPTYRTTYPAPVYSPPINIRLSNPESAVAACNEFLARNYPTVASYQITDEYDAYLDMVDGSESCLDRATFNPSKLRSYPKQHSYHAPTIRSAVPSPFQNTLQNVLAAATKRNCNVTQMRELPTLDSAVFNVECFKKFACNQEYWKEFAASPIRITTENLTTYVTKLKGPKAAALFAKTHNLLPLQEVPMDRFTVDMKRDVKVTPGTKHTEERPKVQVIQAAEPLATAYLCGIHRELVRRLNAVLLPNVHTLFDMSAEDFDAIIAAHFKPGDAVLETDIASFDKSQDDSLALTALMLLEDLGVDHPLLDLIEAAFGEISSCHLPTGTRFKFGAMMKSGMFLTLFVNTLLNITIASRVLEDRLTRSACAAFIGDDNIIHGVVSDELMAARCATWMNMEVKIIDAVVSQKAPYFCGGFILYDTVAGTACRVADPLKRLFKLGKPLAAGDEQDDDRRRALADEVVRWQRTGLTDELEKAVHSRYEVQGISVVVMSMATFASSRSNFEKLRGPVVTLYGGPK
# HLA class I histocompatibility antigen, B alpha chain: HLA class I histocompatibility antigen, B alpha chain (Homo sapiens, UniProt P01889)
# HLA class I histocompatibility antigen, A alpha chain allele A*30:02: HLA class I histocompatibility antigen, A alpha chain, allele A*30:02 (Homo sapiens, UniProt P04439)
# UniProt Q6QIY3, sequence (whole entry, looked up): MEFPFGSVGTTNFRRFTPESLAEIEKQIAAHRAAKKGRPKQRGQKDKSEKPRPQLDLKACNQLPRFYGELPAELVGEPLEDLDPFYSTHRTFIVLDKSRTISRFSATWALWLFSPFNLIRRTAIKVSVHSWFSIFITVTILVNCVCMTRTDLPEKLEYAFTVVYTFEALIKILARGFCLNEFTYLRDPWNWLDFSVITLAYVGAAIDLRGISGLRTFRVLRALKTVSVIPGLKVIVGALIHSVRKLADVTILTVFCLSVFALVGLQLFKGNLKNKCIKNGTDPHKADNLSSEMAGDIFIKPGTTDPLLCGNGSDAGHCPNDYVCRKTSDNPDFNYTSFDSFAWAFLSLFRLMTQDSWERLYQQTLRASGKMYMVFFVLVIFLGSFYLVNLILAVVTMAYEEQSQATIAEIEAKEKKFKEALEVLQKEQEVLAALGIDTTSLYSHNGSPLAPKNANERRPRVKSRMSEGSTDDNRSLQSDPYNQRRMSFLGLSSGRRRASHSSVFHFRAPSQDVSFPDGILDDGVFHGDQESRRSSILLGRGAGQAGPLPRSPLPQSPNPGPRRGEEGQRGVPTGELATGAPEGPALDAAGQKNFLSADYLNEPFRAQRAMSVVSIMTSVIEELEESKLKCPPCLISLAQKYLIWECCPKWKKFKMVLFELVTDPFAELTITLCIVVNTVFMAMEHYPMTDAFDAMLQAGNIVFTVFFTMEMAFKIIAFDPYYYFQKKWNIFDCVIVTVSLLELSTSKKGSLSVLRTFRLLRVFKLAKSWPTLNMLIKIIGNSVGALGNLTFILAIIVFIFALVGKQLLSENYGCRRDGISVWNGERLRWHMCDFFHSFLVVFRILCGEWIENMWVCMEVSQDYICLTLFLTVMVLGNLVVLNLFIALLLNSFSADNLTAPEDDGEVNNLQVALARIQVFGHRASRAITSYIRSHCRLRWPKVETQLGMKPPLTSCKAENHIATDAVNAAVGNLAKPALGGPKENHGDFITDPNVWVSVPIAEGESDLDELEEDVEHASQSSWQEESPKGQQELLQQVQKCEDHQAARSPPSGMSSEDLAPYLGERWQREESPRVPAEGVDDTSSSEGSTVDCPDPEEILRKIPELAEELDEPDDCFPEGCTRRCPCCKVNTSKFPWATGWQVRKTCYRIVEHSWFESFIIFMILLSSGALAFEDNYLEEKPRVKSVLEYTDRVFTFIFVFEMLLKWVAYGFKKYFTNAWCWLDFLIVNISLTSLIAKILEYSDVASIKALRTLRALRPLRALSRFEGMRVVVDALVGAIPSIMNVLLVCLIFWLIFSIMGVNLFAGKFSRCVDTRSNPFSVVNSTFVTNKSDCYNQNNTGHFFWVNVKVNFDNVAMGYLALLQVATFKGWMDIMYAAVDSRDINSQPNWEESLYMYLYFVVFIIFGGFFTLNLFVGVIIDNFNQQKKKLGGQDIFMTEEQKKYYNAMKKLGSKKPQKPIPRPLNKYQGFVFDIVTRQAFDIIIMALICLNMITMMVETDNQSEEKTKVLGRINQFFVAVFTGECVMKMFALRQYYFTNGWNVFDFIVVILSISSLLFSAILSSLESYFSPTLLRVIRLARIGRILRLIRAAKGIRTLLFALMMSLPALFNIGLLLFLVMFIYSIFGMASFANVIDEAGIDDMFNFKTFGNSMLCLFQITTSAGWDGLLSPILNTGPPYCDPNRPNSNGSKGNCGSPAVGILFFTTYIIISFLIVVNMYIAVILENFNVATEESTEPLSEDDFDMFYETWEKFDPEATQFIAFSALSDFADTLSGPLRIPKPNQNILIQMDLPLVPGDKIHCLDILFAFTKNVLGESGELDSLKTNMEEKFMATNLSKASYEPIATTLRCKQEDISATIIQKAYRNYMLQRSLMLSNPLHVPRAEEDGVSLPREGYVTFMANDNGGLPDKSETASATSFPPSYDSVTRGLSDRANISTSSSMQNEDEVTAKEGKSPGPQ
# UniProt P11712, sequence (whole entry, looked up): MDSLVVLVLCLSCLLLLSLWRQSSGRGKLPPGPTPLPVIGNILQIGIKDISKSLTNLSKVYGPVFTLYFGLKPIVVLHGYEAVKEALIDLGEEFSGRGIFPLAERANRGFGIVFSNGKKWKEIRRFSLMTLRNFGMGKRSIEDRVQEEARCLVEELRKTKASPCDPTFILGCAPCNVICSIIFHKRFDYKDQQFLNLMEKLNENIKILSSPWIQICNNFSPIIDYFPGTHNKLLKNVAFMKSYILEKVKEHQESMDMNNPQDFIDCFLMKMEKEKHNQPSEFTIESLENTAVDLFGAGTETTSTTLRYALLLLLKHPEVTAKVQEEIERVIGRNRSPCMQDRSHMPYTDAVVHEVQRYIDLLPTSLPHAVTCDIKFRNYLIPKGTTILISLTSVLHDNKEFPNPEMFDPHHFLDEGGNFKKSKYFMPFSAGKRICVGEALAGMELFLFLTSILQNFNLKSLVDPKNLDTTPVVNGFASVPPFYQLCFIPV
# UniProt Q81Y92, sequence (whole entry, looked up): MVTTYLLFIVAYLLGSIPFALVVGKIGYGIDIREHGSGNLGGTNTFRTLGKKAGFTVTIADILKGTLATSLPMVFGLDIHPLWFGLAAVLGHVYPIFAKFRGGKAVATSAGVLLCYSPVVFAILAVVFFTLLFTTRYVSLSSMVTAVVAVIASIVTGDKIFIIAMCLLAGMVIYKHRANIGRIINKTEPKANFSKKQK
SMILES,tested on,assay,system,setting,scale,quantity,value
CC(=O)N[C@H]1[C@H]([C@H](O)[C@H](O)CO)OC(C(=O)O)=C[C@@H]1N=C(N)N,"neuraminidase (Influenza A virus, UniProt G1FHY4)",,,concentration not given,,IC50,1.26 nM
CCC(C(=O)Nc1cc(NC2CCOCC2)ccc1C)n1cccc2nc(SCc3ccc(F)cc3)nc1-2 (centres unmarked),"Replicase polyprotein 1ab, papain-like protease (rep, Severe acute respiratory syndrome-related coronavirus, UniProt P0C6X7)",enzyme activity,,,,IC50,463 ± 115 nM
Cn1cnc(Cn2c(=O)[nH]/c(=N\c3cc4cn(C)nc4cc3Cl)n(Cc3cc(F)c(F)cc3F)c2=O)n1,"Cytochrome P450 2C9 (CYP2C9, Homo sapiens, UniProt P11712)",inhibitor,human liver microsomes,"30 min preincubation, preincubation with NADPH, with: diclofenac 12 µM",,IC50,> 100000 nM
CC(C)C[C@H](NC(=O)[C@H](CCC(=O)O)NC(=O)[C@H](CS)NC(=O)[C@H](Cc1ccc(O)cc1)NC(=O)[C@H](CO)NC(=O)[C@H](CCCCN)NC(=O)[C@H](CO)NC(=O)[C@H](CCC(=O)O)NC(=O)CN)C(=O)O,"HLA class I histocompatibility antigen, B alpha chain, allele B*40:01 (Homo sapiens, UniProt P01889)",biochemical,,,,IC50,27 nM
CC(C)C[C@H](NC(=O)[C@H](Cc1ccccc1)NC(=O)[C@H](CO)NC(=O)[C@@H]1CCCN1C(=O)[C@H](CC(=O)O)NC(=O)[C@@H](NC(=O)[C@@H](NC(=O)[C@@H](N)Cc1c[nH]cn1)[C@@H](C)O)[C@@H](C)O)C(=O)NCC(=O)N[C@@H](CCCNC(=N)N)C(=O)O,"HLA class I histocompatibility antigen, A alpha chain (Homo sapiens, UniProt P04439)","binding, competitor",,,,IC50,10300 nM
O=C(O)C1=C[C@H](O)[C@@H](n2cc(-c3ccc(-c4ccccc4)cc3)nn2)[C@H]([C@H](O)[C@H](O)CO)O1,nanI,"enzyme activity, inhibitor",,,,IC50,> 500000 nM
CC[C@H](C)[C@H](NC(=O)[C@H](C)NC(=O)CNC(=O)[C@H](CC(N)=O)NC(=O)[C@H](CCC(=O)O)NC(=O)[C@@H](N)CC(C)C)C(=O)N[C@@H](CCCNC(=N)N)C(=O)N[C@H](C(=O)N[C@@H](Cc1ccc(O)cc1)C(=O)O)[C@@H](C)CC,"HLA class I histocompatibility antigen, B alpha chain, allele B*44:03 (Homo sapiens, UniProt P01889)",biochemical,,,,IC50,3.3 nM
CC(=O)N[C@H]1[C@H]([C@H](O)[C@H](O)CO)O[C@](OP(=O)(O)OC[C@H]2O[C@@H](n3ccc(N)nc3=O)[C@H](O)[C@@H]2O)(C(=O)O)C[C@@H]1O,"Spike glycoprotein, with ACE2 (Severe acute respiratory syndrome coronavirus 2, UniProt P0DTC2)","binding to human ACE2, inhibitor",SARS-CoV-2,,,IC50,3.2 nM
CC[C@H](C)[C@H](NC(=O)[C@H](CC(=O)O)NC(=O)[C@@H](N)C(C)C)C(=O)N[C@@H](CC(N)=O)C(=O)N[C@@H](CCCNC(=N)N)C(=O)N[C@@H](CC(N)=O)C(=O)N[C@@H](CC(N)=O)C(=O)N[C@@H](CCCCN)C(=O)N[C@@H](Cc1ccccc1)C(=O)O,"HLA class I histocompatibility antigen, A alpha chain, allele A*24:02 (Homo sapiens, UniProt P04439)",biochemical,,,,IC50,> 10000 nM
O=C(N1CCC2(CC1)C[C@@H](CN1CCCCS1(=O)=O)CCO2)C1(c2ccccc2)CCCC1,"Polyprotein P1234, nsP2 (Chikungunya virus, UniProt Q8JUX6)","nsP2 ATPase activity, inhibitor, ADP-Glo",,,,IC50,> 100000 nM
C=CC(=O)N1CC(C(=O)O)OC(C)(C)C1 (centres unmarked),Polyprotein P1234 nsP2 protease domain,"protease activity, inhibitor, FRET",,"90 min, 30 min preincubation",,IC50,140000 ± 52000 nM
CCCCCCCC/C=C\CCCCCCCC(=O)C(F)(F)P(=O)(O)O,"Glycerol-3-phosphate acyltransferase 3 (plsY3, Bacillus anthracis, UniProt Q81Y92)",inhibitor,,,,IC50,140000 nM
C=CS(=O)(=O)CCC(=O)Nc1cccc(Cl)c1-n1cccn1,Polyprotein P1234 nsP2 protease domain,"protease activity, inhibitor, FRET",,"90 min, 30 min preincubation",,IC50,16000 ± 2000 nM
CCC(C(=O)Nc1cc(NC2CCOCC2)ccc1C)n1cc(Cl)cc2nc(SCc3ccc(F)cc3)nc1-2 (centres unmarked),"Replicase polyprotein 1ab, papain-like protease (rep, Severe acute respiratory syndrome-related coronavirus, UniProt P0C6X7)",enzyme activity,,,,IC50,350 ± 33 nM
Cn1cnc(Cn2c(=O)[nH]/c(=N\c3cc4cn(C)nc4cc3Cl)n(Cc3cc(F)c(F)cc3F)c2=O)n1,,,"human, severe renal impairment, plasma","oral, 375 mg single dose",,terminal elimination rate constant,2.72e-06 s⁻¹
Cn1cc(-c2ncc(C(=O)NCC=CS(C)(=O)=O)s2)cn1,Polyprotein P1234 nsP2 protease domain,"enzyme activity, inhibitor, FRET",,"90 min, 30 min preincubation",,IC50,1200 nM and < 1500 nM
CCCCCc1cc(O)c2c(c1)OC(C)(C)c1ccc(C)cc1-2,"Sodium channel protein type 10 subunit alpha (Scn10a, Mus musculus, UniProt Q6QIY3)","ion current, inhibitor, patch clamp",,,,IC50,~16000 nM
CS(=O)(=O)C=CCNC(=O)CCc1nnc(-c2ccccc2)o1,Polyprotein P1234 nsP2 protease domain,"enzyme activity, inhibitor, FRET",,"90 min, 30 min preincubation",,IC50,8400 ± 1500 nM
CCC(CC)[C@H](NC(C)=O)[C@@H]1[C@H](O)[C@@H](C(=O)O)C[C@H]1N=C(N)N,"Neuraminidase (Influenza A virus, UniProt I3NP73)","enzyme activity, inhibitor","swine influenza A virus, H1N1pdm09",,,IC50,0.09 ± 0.01 nM
CCCCCC(=O)N(C)[C@H]1[C@H]([C@H](O)[C@H](O)CO)OC(C(=O)O)=C[C@@H]1O,nanI,"enzyme activity, inhibitor",,,,IC50,> 500000 nM
CC[C@H](C)[C@H](NC(=O)[C@H](C)NC(=O)[C@H](Cc1ccc(O)cc1)NC(=O)[C@H](CCCNC(=N)N)NC(=O)[C@@H](NC(=O)[C@H](C)NC(=O)[C@@H]1CCCN1C(=O)[C@H](CCCCN)NC(=O)[C@@H]1CCCN1C(=O)[C@@H](N)CCCCN)C(C)C)C(=O)O,"HLA class I histocompatibility antigen, B alpha chain",biochemical,,,,IC50,15 nM
CCC(C(=O)Nc1cc(NC2CCNC2)ccc1C)n1cc(F)cc2nc(SCc3ccc(F)cc3)nc1-2 (centres unmarked),"Replicase polyprotein 1ab, papain-like protease (rep, Middle East respiratory syndrome-related coronavirus, UniProt K9N7C7)","enzyme activity, inhibitor",,,,IC50,> 100000 nM
CCc1c(C(=O)C(N)=O)c2c(OCC(=O)O)cccc2n1Cc1ccccc1,Daboia russelii venom PLA2,"enzyme activity, inhibitor",,"venom from Maharashtra, with: NOB substrate",,IC50,1660 nM
CS(=O)(=O)c1cc(C#N)cc(NC(=O)CCl)c1,Polyprotein P1234 nsP2 protease domain,"enzyme activity, inhibitor, FRET",,"90 min, 30 min preincubation",,IC50,4500 ± 2300 nM
CC[C@H](C)[C@H](NC(=O)[C@H](CC(C)C)NC(=O)[C@H](Cc1c[nH]c2ccccc12)NC(=O)[C@H](CCC(N)=O)NC(=O)[C@@H](NC(=O)[C@H](Cc1ccccc1)NC(=O)[C@H](C)NC(=O)[C@H](CCCCNC(=O)COCCOCCNC(=O)COCCOCCNC(=O)CC[C@H](NC(=O)CCCCCCCCCCCCCCCCCCC(=O)O)C(=O)O)NC(=O)[C@H](CCC(N)=O)NC(=O)[C@H](C)NC(=O)[C@@H](NC(=O)[C@H](CCCCN)NC(=O)[C@H](CC(=O)O)NC(=O)[C@H](CC(C)C)NC(=O)C(C)(C)NC(=O)[C@@H](NC(=O)[C@H](CO)NC(=O)[C@H](Cc1ccc(O)cc1)NC(=O)[C@H](CC(=O)O)NC(=O)[C@H](CO)NC(=O)[C@@H](NC(=O)[C@H](Cc1ccccc1)NC(=O)[C@@H](NC(=O)CNC(=O)[C@H](CCC(=O)O)NC(=O)C(C)(C)NC(=O)[C@@H](N)Cc1ccc(O)cc1)[C@@H](C)O)[C@@H](C)O)[C@@H](C)CC)[C@@H](C)CC)C(C)C)C(=O)N[C@@H](C)C(=O)NCC(=O)NCC(=O)N1CCC[C@H]1C(=O)N[C@@H](CO)C(=O)N[C@@H](CO)C(=O)NCC(=O)N[C@@H](C)C(=O)N1CCC[C@H]1C(=O)N1CCC[C@H]1C(=O)N1CCC[C@H]1C(=O)N[C@@H](CO)C(N)=O,,,"healthy subjects, single ascending dose","1.0 mg, day 29",relative to: baseline,systolic blood pressure change,1.9 mmHg
CC1=NOC(=O)/C1=C\c1ccc(-c2ccc(Cl)cc2Cl)o1,"Replicase polyprotein 1ab, nsp13 helicase (rep, Severe acute respiratory syndrome coronavirus 2, UniProt P0DTD1)","helicase ATPase activity, inhibitor, Kinase-Glo luminescence",,,,IC50,> 100000 nM
CC(C)Cc1cn([C@H]2[C@H]([C@H](O)[C@H](O)CO)OC(C(=O)O)=C[C@@H]2O)nn1,nanI,"enzyme activity, inhibitor",,,,IC50,> 500000 nM
CC[C@H](C)[C@H](NC(=O)[C@@H](NC(=O)[C@@H](N)CCCNC(=N)N)[C@@H](C)O)C(=O)N[C@@H](CCCCN)C(=O)N[C@H](C(=O)N[C@@H](Cc1ccccc1)C(=O)N[C@H](C(=O)N[C@H](C(=O)N[C@H](C(=O)O)C(C)C)[C@@H](C)O)[C@@H](C)O)C(C)C,"HLA class I histocompatibility antigen, B alpha chain","binding, competitor",,,,IC50,19300 nM
Cc1nc(N2CCOCC2)sc1C(=O)NNC(=O)CCl,Polyprotein P1234 nsP2 protease domain,"protease activity, inhibitor, FRET",,"90 min, 30 min preincubation",,IC50,65000 ± 50000 nM
Cc1ccc(N)cc1C(=O)N[C@H](C)c1cccc2ccccc12,"Replicase polyprotein 1ab, papain-like protease (rep, Middle East respiratory syndrome-related coronavirus, UniProt K9N7C7)","enzyme activity, inhibitor",,,,IC50,> 100000 nM
Nc1ncnc2c([C@@H]3N[C@H](CO)[C@@H](O)[C@H]3O)c[nH]c12,Zaire ebolavirus,viral replication,"HeLa, Kikwit",3.1 µM,,inhibition,0%
C[C@@H](O)[C@H](NC(=O)[C@H](CC(N)=O)NC(=O)[C@H](CC(N)=O)NC(=O)[C@@H](N)Cc1ccccc1)C(=O)N[C@@H](CCCCN)C(=O)N[C@@H](Cc1ccccc1)C(=O)N[C@@H](CC(=O)O)C(=O)N[C@@H](Cc1ccc(O)cc1)C(=O)N[C@@H](Cc1ccc(O)cc1)C(=O)O,"HLA class I histocompatibility antigen, A alpha chain allele A*30:02",biochemical,,,,IC50,1480 nM
CCC(C(=O)Nc1cc(NC2CNC2)ccc1C)n1cc(Br)cc2nc(SCc3ccc(F)cc3)nc1-2 (centres unmarked),"Replicase polyprotein 1ab, papain-like protease (rep, Severe acute respiratory syndrome-related coronavirus, UniProt P0C6X7)",enzyme activity,,,,IC50,87 ± 19 nM
CC(C)[C@H](N)C(=O)N[C@H](C(=O)N[C@@H](CC(=O)O)C(=O)N[C@H](C(=O)N[C@@H](CC(N)=O)C(=O)N[C@@H](CCCCN)C(=O)N[C@@H](Cc1ccccc1)C(=O)N[C@@H](C)C(=O)N[C@@H](Cc1c[nH]cn1)C(=O)N[C@@H](Cc1ccc(O)cc1)C(=O)O)[C@@H](C)O)[C@@H](C)O,"HLA class I histocompatibility antigen, A alpha chain allele A*30:02",biochemical,,,,IC50,545 nM
CC[C@H](C)[C@H](NC(=O)[C@H](CCC(=O)O)NC(=O)[C@H](CCCCN)NC(=O)[C@H](CC(C)C)NC(=O)[C@H](CC(N)=O)NC(=O)[C@@H](NC(=O)[C@H](Cc1ccc(O)cc1)NC(=O)[C@H](CO)NC(=O)[C@H](CCC(=O)O)NC(=O)[C@H](CCC(=O)O)NC(=O)[C@H](CC(C)C)NC(=O)[C@H](CCCCN)NC(=O)[C@H](CCCCN)NC(=O)[C@@H](NC(=O)[C@H](C)NC(=O)[C@H](CCC(=O)O)NC(=O)[C@H](CCC(=O)O)NC(=O)[C@H](CC(C)C)NC(=O)[C@H](CCCCN)NC(=O)[C@H](CCCCN)NC(=O)[C@H](CCSC)NC(=O)[C@H](CCC(=O)O)NC(=O)[C@H](CC(=O)O)NC(=O)[C@H](CCC(=O)O)NC(=O)[C@H](CC(C)C)NC(=O)[C@H](CC(=O)O)NC(=O)[C@H](CC(C)C)NC(=O)[C@H](Cc1ccccc1)NC(=O)[C@@H](NC(=O)[C@@H](NC(=O)[C@H](CC(N)=O)NC(=O)[C@@H](NC(=O)[C@H](Cc1ccc(O)cc1)NC(=O)[C@H](CC(=O)O)NC(=O)[C@H](CC(C)C)NC(=O)[C@@H](N)CO)[C@@H](C)CC)C(C)C)[C@@H](C)O)[C@@H](C)CC)[C@@H](C)CC)C(=O)O,"Spike glycoprotein (S, Human coronavirus 229E, UniProt P15423)",,,,,IC50,220 ± 50 nM
